Earlier results as cited in several papers.
Each line is one published result; not all experiments were run side by side.

C[C@]12CCC(=O)C=C1CC[C@@H]1[C@@H]2[C@@H](O)C[C@@]2(C)[C@H]1CC[C@]2(O)C(=O)CO — Cmax (human, plasma; concentration not given, range of reported values): 188 to 614 nM
Cc1cc(/C=C/C#N)cc(C)c1Nc1ccnc(Nc2ccc(C#N)cc2)n1 — Cmax (human, plasma total; 150 mg): 3000 nM
O=c1n(CCCN2CCN(c3cccc(Cl)c3)CC2)nc2ccccn12 — Cmax (human, plasma; concentration not given, range of reported values): 1570 to 2910 nM
C=C[C@@H]1C[C@]1(NC(=O)[C@@H]1C[C@@H](Oc2ncc(OC)c3ccc(Cl)cc23)CN1C(=O)[C@@H](NC(=O)OC(C)(C)C)C(C)(C)C)C(=O)NS(=O)(=O)C1CC1 — Cmax (human patients, plasma; dose not given, single or steady-state dosing, with: with co-medication): 900 nM
COC(=O)[C@H](c1ccccc1)[C@H]1CCCCN1 — Cmax (human, by CES1 genotype, plasma; oral, 10 mg methylphenidate, single dose, median): 6.4 ng/mL
C[C@H](Cn1cnc2c(N)ncnc21)OCP(=O)(O)O — Cmax (human, plasma total; 300 mg): 1100 nM
C=C1C[C@@H]2[C@H](CC[C@]3(C)C(=O)CC[C@@H]23)[C@@]2(C)C=CC(=O)C=C12 — Cmax (human, plasma; concentration not given, median of reported values): 51 nM
CC(C)[C@H](N)C(=O)NCCCS(=O)(=O)O — Cmax (human, plasma; dose not given): 6460 ng/mL
O=C(O)CSc1nnc(Br)n1-c1ccc(C2CC2)c2ccccc12 — Cmax (human, plasma total; 200 mg): 15000 nM
CC(C)(C)OC(=O)N[C@H]1CCCCC/C=C\[C@@H]2C[C@@]2(C(=O)NS(=O)(=O)C2CC2)NC(=O)[C@@H]2C[C@@H](OC(=O)N3Cc4cccc(F)c4C3)CN2C1=O — Cmax (human patients, plasma; dose not given, single or steady-state dosing, with: with co-medication): 3200 nM
CC(C)(C)NC(=O)[C@@H]1C[C@@H]2CCCC[C@@H]2CN1C[C@@H](O)[C@H](Cc1ccccc1)NC(=O)[C@H](CC(N)=O)NC(=O)c1ccc2ccccc2n1 — Cmax (human, plasma; concentration not given, range of reported values): 119 to 550000 nM
O=C(O)[C@@H](c1ccccc1)[C@@H]1CCCCN1 — Cmax (human, CES1 wild type, plasma; oral, 10 mg methylphenidate, single dose, median): 103 ng/mL
N#Cc1ccccc1-c1cc(-c2ccccn2)cn(-c2ccccc2)c1=O — Cmax (human, plasma total; 6 mg): 846 nM
NC(=O)c1ccc2c(c1O)[C@]13CCN(CC4CC4)[C@H](C2)[C@]1(O)CCC(=O)C3 — Cmax (human; oral, 5 mg, day 1): 13.8 ng/mL
O=C(O)c1ccc(CN2C[C@@H]3C[C@H]2CN3Cc2ccc(Oc3ccc(-c4ncco4)cc3)cc2)cc1 — Cmax (human, plasma total; 100 mg): 4780 nM
CCOc1ccccc1OCCN[C@H](C)Cc1ccc(OC)c(S(N)(=O)=O)c1 — Cmax (human, plasma; concentration not given, range of reported values): 8 to 58 nM
COc1ccc2c(O[C@@H]3C[C@H]4C(=O)N[C@]5(C(=O)NS(=O)(=O)C6CC6)C[C@H]5/C=C\CCCCN(C)C(=O)[C@@H]4C3)cc(-c3nc(C(C)C)cs3)nc2c1C — Cmax (human patients; 150 mg per 24 h, recommended dose): 5600 nM
C[C@@H]1CS/C(=N\NC(=O)C(=O)[C@H](NC(=O)C2CCCCCC2)C2CCOCC2)N1C — Cmax (human; 300 mg once daily): 1600 nM
O=c1c(O)c(-c2ccc(O)c(O)c2)oc2cc(O)cc(O)c12 — Cmax (human healthy volunteers; oral, 100 mg): 7650 nM
C[C@]12C=CC(=O)C=C1CC[C@@H]1[C@@H]2C(=O)C[C@@]2(C)[C@H]1CC[C@]2(O)C(=O)CO — Cmax (human, plasma; concentration not given, median of reported values): 203 nM
COc1ccccc1Oc1c(NS(=O)(=O)c2ccc(C(C)(C)C)cc2)nc(-c2ncccn2)nc1OCCO — Cmax (human; 125 mg, 5.5 days): 2030 nM
CC(NCCc1ccc(O)cc1)C(O)c1ccc(O)cc1 (centres unmarked) — Cmax (human, plasma; concentration not given, range of reported values): 14 to 154 nM
CCC(=O)NC[C@@H]1C[C@H]1c1cccc2c1CCO2 — Cmax (human, plasma total; 20 mg): 803 nM
C[C@H]1C[C@@H]2[C@H]([C@@H](O)C[C@@]3(C)[C@H]2CC[C@]3(O)C(=O)CO)[C@@]2(C)C=CC(=O)C=C12 — Cmax (human, plasma; concentration not given, range of reported values): 61 to 2110 nM
CC(C)(O)c1ccc2c(c1)C(=CCCN1CCC(O)(c3ccc(Cl)cc3)C(C)(C)C1)c1cccnc1CO2 (centres unmarked) — Cmax (human; 10 mg once daily): 9 nM
C=C[C@@H]1C[C@]1(NC(=O)[C@@H]1C[C@@H]2CN1C(=O)[C@H](C(C)(C)C)NC(=O)O[C@@H]1C[C@H]1CCCCCc1nc3ccc(OC)cc3nc1O2)C(=O)NS(=O)(=O)C1CC1 — Cmax (human, HCV genotype 1 patients, plasma; oral, 100 mg once daily, steady state, mean): 150 nM
C=C[C@@H]1C[C@]1(NC(=O)[C@@H]1C[C@@H](Oc2cc(-c3csc(NC(=O)C(C)C)n3)nc3c(Br)c(OC)ccc23)CN1C(=O)[C@@H](NC(=O)OC1CCCC1)C(C)(C)C)C(=O)O — Cmax (human patients, plasma; dose not given, single or steady-state dosing, with: with co-medication): 4400 nM
CC(C)=CCN1Cc2cc(Cl)cc3[nH]c(=S)n(c23)C[C@@H]1C — Cmax (human; 200 mg once daily): 180 nM
Cc1cnc(C(=O)N[C@H]2CCCCC/C=C\[C@@H]3C[C@@]3(C(=O)NS(=O)(=O)C3CC3)NC(=O)[C@@H]3C[C@@H](Oc4nc5ccccc5c5ccccc45)CN3C2=O)cn1 — Cmax (human patients, plasma; dose not given, single or steady-state dosing, with: with co-medication): 300 nM
CC1(C)CCC(CN2CCN(c3ccc(C(=O)NS(=O)(=O)c4ccc(NCC5CCOCC5)c([N+](=O)[O-])c4)c(Oc4cnc5[nH]ccc5c4)c3)CC2)=C(c2ccc(Cl)cc2)C1 — Cmax (human; oral, 100 mg single dose): 500 ng/mL
CC(C)(C)NC(=O)N[C@H](C(=O)N1C[C@H]2[C@@H]([C@H]1C(=O)NC(CC1CCC1)C(=O)C(N)=O)C2(C)C)C(C)(C)C (some centres unmarked) — Cmax (human patients, plasma; dose not given, single or steady-state dosing, with: with co-medication): 3300 nM
COc1cc2c(c(OC)c1OC)-c1ccc(OC)c(=O)cc1[C@@H](NC(C)=O)CC2 — Cmax (human, plasma; concentration not given): 17 nM
